Assay results collected from several papers.
Protocols differ between the studies behind these lines. Numbers after ± are the reported error.
Cell line: MDA-MB-231

CCOC(=O)c1ccc2c(c1)n(CC)[c]([Au-]([Cl])([Cl])[Cl])[n+]2CC  IC50 (cell growth or viability, crystal violet; 96 h): 4.7 µM
COc1cc(OC)c(-c2coc3c4c(c(OC)cc3c2=O)OC(C)(C)C=C4)cc1OC  IC50 (cell growth or viability, MTT; 72 h): 11.1 µM
CC(C)=CCc1c2c(c(O)c3c(=O)c(-c4ccc(O)cc4)coc13)C=CC(C)(C)O2  IC50 (cell growth or viability, MTT; 24 h): 13.9 µM
C[C@@H]1CC[C@@H]([C@@](O)(CNCc2ccccc2F)COCc2ccccc2)[C@H](OCc2ccccc2)C1  IC50 (cell growth or viability, MTT; 72 h): 6 µM
CN[C@@H](C)C(=O)N[C@H]1CN(C(=O)Cc2ccccc2)CC[C@H]2CC[C@@H](C(=O)NCc3ccc([N+](=O)[O-])cc3)N2C1=O  IC50 (cell growth or viability; 96 h): 0.292 µM
COc1ccc(/N=N/C(=S)N2CCCC2)cc1  IC50 (cell growth or viability, resazurin; 48 h): > 50 µM
COc1cc(/C=C/C(=O)/C=C/c2cn(-c3ccccc3)nc2C(=O)O)cc(OC)c1OC  IC50 (cell growth; 72 h): > 25 µM
C=CCc1ccc(OC(C)=O)c(OC)c1  IC50 (MTT; 24 h): > 50 µM
C[C@]12CC/C(=N\OCCN3CCOCC3)C=C1CCC1C2CC[C@]2(C)/C(=C/c3ccccn3)CCC12 (some centres unmarked)  IC50 (cell growth or viability, MTT; 72 h): 26.8 µM
C#C[C@@]12OC(C)(C)O[C@@H]1CC1C3CCc4cc(Oc5no[n+]([O-])c5S(=O)(=O)c5ccccc5)ccc4C3CCC12C (some centres unmarked)  IC50 (cell growth or viability, MTT; 48 h): 0.019 µM
C[C@@H]1CC[C@@H]([C@@](O)(COCc2ccccc2)Cn2cnc3ccccc32)[C@H](OCc2ccccc2)C1  IC50 (cell growth or viability, MTT; 72 h): 12.4 µM
C[C@@H]1O[C@@H](OC(=O)/C=C/c2ccc(O)cc2)[C@H](OC(=O)/C=C/c2ccc(O)cc2)[C@H](O)[C@H]1O  IC50 (cell proliferation, MTT; with: HGF): 17.7 µM
O=C(COc1ccccc1C1=Nn2c(Cc3ccccc3)nnc2SC1)NCCCNC(=O)COc1ccccc1C1=Nn2c(Cc3ccccc3)nnc2SC1  IC50 (cell viability, MTT): > 50 µM
CCCCCCCCCCCCCCCOC(=O)/C=C/c1ccc(OC)c(O)c1  IC50 (cell viability, MTT; 48 h, serum-free medium): 3.4 ± 0.8 µg/mL
Cc1cc(C)c([N+]#[C][Pd-2]([Cl])([Cl])[C]#[N+]c2c(C)cc(C)cc2C)c(C)c1  IC50 (cell growth or viability): 24 µM
COc1cccc(CNC[C@@](O)(COCc2ccccc2)[C@@H]2CC[C@@H](C)C[C@H]2OCc2ccccc2)c1  IC50 (cell growth or viability, MTT; 72 h): 16.8 µM
Cc1cc(=O)[nH]c(=O)n1CCCCCCOC(=O)C12CCC(C)C(C)C1C1=CCC3C4(C)CCC(O)C(C)(C)C4CCC3(C)C1(C)CC2 (centres unmarked)  IC50 (cell growth or viability, thymidine uptake; 24 h): ~10 µM
O=C1c2ccc(O)cc2OC1(O)Cc1ccc(O)c(O)c1 (centres unmarked)  IC50 (cell growth or viability, MTT; 72 h): > 400 µM
C#CCOCC1=C(C(=O)OCC)C(c2cccc(Cl)c2)N2C=CSC2=N1 (centres unmarked)  IC50 (cell growth or viability, MTT): 52.7 µM
CCN(CC)C1=[S+][Au-2]2([S]1)[c]1ccccc1-c1cccc[n+]12.F[P-](F)(F)(F)(F)F (centres unmarked)  IC50 (cell growth or viability, MTT; 72 h): 1.38 µM
Cc1cc(C)c(N=[C](NCc2ccc(N)cc2)[AuH][Cl])c(C)c1  IC50 (cell growth or viability): > 100 µM
CN[C@@H](C)C(=O)N[C@H]1CN(C(=O)Cc2ccccc2)CC[C@H]2CC[C@@H](C(=O)NCc3cccc(Cl)c3)N2C1=O  IC50 (cell growth or viability; 96 h): 0.294 µM
Cc1cc(C#N)cc(C)c1Oc1cc(Nc2ccc(C#N)cn2)nc2ccncc12  IC50 (48 h): > 127 µM
N#C[CH2][Pd]1[O]c2ccc(Br)cc2C=Nc2cccnc2[N]1C1CCCCC1  IC50 (cell growth or viability, MTT; 48 h): 34.2 µM
C=C1C(=O)OC2CC3=C[C@@H](C/C(C)=C/C(OC(=O)Cc4cccc5ccccc45)[C@H]12)OC3=O (some centres unmarked)  IC50 (cell growth or viability, MTT; 24 h): 3.5 µM
COc1ccc(/C(=C(/CCn2cc(CN3C(=O)C(=O)c4ccccc43)nn2)c2ccccc2)c2ccccc2)cc1  IC50 (cell growth or viability, MTT): 52.3 µM
CN(C)c1cc[n+](Cc2cccc(C[n+]3ccc(N(C)C)cc3)c2)cc1  IC50 (cell growth or viability, MTT; 72 h): 28.4 µM
COc1ccccc1CNC[C@@](O)(COCc1ccccc1)[C@@H]1CC[C@@H](C)C[C@H]1OCc1ccccc1  IC50 (cell growth or viability, MTT; 72 h): 2 µM
Cc1c(Cl)cccc1Nc1ccccc1C(=O)[O][Re-2]1(=[C]=O)(=[C]=O)(=[C]=O)[n+]2ccc(-c3ccccc3)c3ccc4c(-c5ccccc5)cc[n+]1c4c32  IC50 (cell growth or viability, resazurin; 72 h): 6.08 µM
[Cl][Au-][c]1n(-c2c(C(c3ccccc3)c3ccccc3)cc(C(c3ccccc3)c3ccccc3)cc2C(c2ccccc2)c2ccccc2)c2c([n+]1-c1c(C(c3ccccc3)c3ccccc3)cc(C(c3ccccc3)c3ccccc3)cc1C(c1ccccc1)c1ccccc1)-c1cccc3cccc-2c13  IC50 (cell growth or viability, MTT; 72 h): > 50 µM
COc1c(C)c(OC(=O)c2ccccc2)c(C)c(OC(=O)c2ccccc2)c1C(=O)/C=C/c1ccccc1  IC50 (cell growth or viability, SRB; 72 h): > 50 µM
CC(C)c1cccc(C(C)C)c1-n1c2c([n+](-c3c(C(C)C)cccc3C(C)C)[c]1[Cu-][Cl])-c1cccc3cccc-2c13  IC50 (cell growth or viability, MTT; 72 h): 4 µM
Cc1cc(-c2ccccc2)c2ccc3c(-c4ccccc4)cc(C)nc3c2n1.[Cl-].[Cl-].[Ru+2].c1ccc(-c2ccccn2)nc1.c1ccc(-c2ccccn2)nc1  IC50 (cell viability, WST-1; 72 h, dark): 5.55 µM
O=C(/C=C/c1ccccc1)c1ccc(OCc2cn(CCN3C(=O)c4cccc5cccc(c45)C3=O)nn2)cc1  IC50 (cell growth or viability, MTT; 24 h): > 100 µM
c1ccc(-c2nn(-c3nc4ccccc4s3)[n+](-c3ccccc3)n2)cc1  IC50 (cell growth or viability, resazurin; 72 h): 21 µM
Cc1cc(C)c(N=[C](NCc2cccc(N)c2)[AuH][Cl])c(C)c1  IC50 (cell growth or viability): > 100 µM
CC(=O)Oc1ccccc1C(=O)[O][Re-2]1(=[C]=O)(=[C]=O)(=[C]=O)[n+]2c(C)cc(-c3ccccc3)c3ccc4c(-c5ccccc5)cc(C)[n+]1c4c32  IC50 (cell growth or viability, resazurin; 72 h): 2.41 µM
CN[C@@H](C)C(=O)N[C@H]1CN(C(=O)Cc2ccccc2)CC[C@H]2CC[C@@H](C(=O)NC(c3ccccc3)c3ccccc3)N2C1=O  IC50 (cell growth or viability; 96 h): 0.052 µM
Cc1ccc(S(=O)(=O)[O][Re-2]2(=[C]=O)(=[C]=O)(=[C]=O)[n+]3c(C)cc(-c4ccccc4)c4ccc5c(-c6ccccc6)cc(C)[n+]2c5c43)cc1  IC50 (cell growth or viability, resazurin; 72 h): 0.248 µM
CCC(CCC(C)C1CCC2C3CCC4=CC(=O)CCC4(C)C3CCC12C)C(C)C (centres unmarked)  IC50 (cell growth or viability, resazurin; 24 h): 195 µg/mL
O=C(/C=C/c1ccc2c(c1)OCO2)/C=C/c1cn(-c2ccccc2)nc1C(=O)O  IC50 (cell growth; 72 h): 15.8 ± 0.88 µM
C#C[C@@]1(O)[C@H](O)CC2C3CCc4cc(Oc5no[n+]([O-])c5S(=O)(=O)c5ccccc5)ccc4C3CCC21C (some centres unmarked)  IC50 (cell growth or viability, MTT; 48 h): 0.0553 µM
CN[C@@H](C)C(=O)N[C@H]1CN(C(=O)Cc2ccccc2)CC[C@H]2CC[C@@H](C(=O)NCc3ccc(OC)cc3)N2C1=O  IC50 (cell growth or viability; 96 h): 0.121 µM
Cc1cc(C=O)cc(C)c1Oc1cc(Nc2ccc(C#N)cn2)nc2ccncc12  IC50 (48 h): 113 ± 6.2 µM
CCCCCCCCCCCCCCCC(=O)Oc1ccc(CO)cc1OC(C)=O  IC50 (cell viability, MTT; 48 h, serum-free medium): 6.4 ± 2 µg/mL
Cc1ccc(C(C)C)cc1.[Cl-].[Cl-].[Ru+2].c1ccc(P(=Nc2cccc3cccnc23)(c2ccccc2)c2ccccc2)cc1  IC50 (cell growth or viability, MTT; 24 h): 16.2 µM
CCC1C=CC2CCN(C(=O)C3CCC4C=CC5(CCCN5C(=O)C(Cc5ccccc5Cl)NC(C)=O)C(=O)N43)C2C(=O)N1CC(=O)OC (centres unmarked)  IC50 (cell migration): 53 µM
CC(C)c1cccc(C(C)C)c1[N+]#[C][Pt-]([Cl])([Cl])=[C](Nc1cccc(CN[C](NC(C)(C)C)=[Au][Cl])c1)Nc1c(C(C)C)cccc1C(C)C  IC50 (cell growth or viability): > 100 µM
CC/C(=C(\c1ccccc1)c1ccc(OCCN(C)CCCCCCC(=O)NCCc2c[nH]c3ccc(OC)cc23)cc1)c1ccccc1  IC50 (cell survival, MTT; day 9, dosed days 2, 4, 7): 5.3 µM
Cc1cc(-c2ccccc2)c2ccc3c(-c4ccccc4)cc(C)[n+]4c3c2[n+]1[Re-2]4(=[C]=O)(=[C]=O)(=[C]=O)[O]S(=O)(=O)c1cccc2ccccc12  IC50 (cell growth or viability, resazurin; 72 h): 0.716 µM
COC(=O)[C@@H]1CCCN1C(=O)[C@H](C)N(C)C(=O)OC(C)(C)C  IC50 (cell growth or viability, SRB): 11 µM
CCCCCCCCCCCCCCCOC(=O)/C=C/c1ccc(O)c(O)c1  IC50 (cell viability, MTT; 48 h, serum-free medium): 3.9 ± 0.2 µg/mL
COc1ccccc1/C=N/NC(=O)c1cc2cc(Nc3nccc(-c4cccnc4)n3)ccc2[nH]1  IC50 (cell growth or viability, MTT; 48 h): 8.88 µM
C=CC(=C)CC[C@]1(C)[C@H](C)C[C@H](O)[C@@]23C(=C[C@H](OC(=O)C(C)C)C[C@@H]12)[C@@H](OC(C)=O)O[C@H]3OC(C)=O  IC50 (cell growth or viability, SRB): 0.48 µM
Cc1cc(C)c(N[C](NCc2ccc(N[C](Nc3c(C(C)C)cccc3C(C)C)=[Pd-]([Cl])([Cl])[C]#[N+]c3c(C(C)C)cccc3C(C)C)cc2)=[Au][Cl])c(C)c1  IC50 (cell growth or viability): 17 µM
C[n+]1ccn(CC(O)c2ccccc2)[c]1[Ag-][I] (centres unmarked)  IC50 (cell growth or viability, MTT; 72 h): 43.5 µM
O=C(CNc1nc(NNC(=O)c2ccc(Nc3nc(Nc4ccc(C(=O)NNc5nc(NCC(=O)NO)nc(N6CCCCC6)n5)cc4)nc(Nc4ccc(C(=O)NNc5nc(NCC(=O)NO)nc(N6CCCCC6)n5)cc4)n3)cc2)nc(N2CCCCC2)n1)NO  IC50 (cell growth or viability, MTT; 72 h): 0.0797 µM
CC(C)c1cccc(C(C)C)c1[N+]#[C][Pd-]([Cl])([Cl])=[C](Nc1ccc(CN[C](NC(C)(C)C)=[Au][Cl])cc1)Nc1c(C(C)C)cccc1C(C)C  IC50 (cell growth or viability): > 100 µM
CCN(CC)c1ccc2c(c1)[O][Pd]([CH2]C#N)[N](Cc1ccccc1)c1ncccc1N=C2  IC50 (cell growth or viability, MTT; 48 h): 34.4 µM

Repeated from above:
C#C[C@@]12OC(C)(C)O[C@@H]1CC1C3CCc4cc(Oc5no[n+]([O-])c5S(=O)(=O)c5ccccc5)ccc4C3CCC12C (some centres unmarked)  IC50 (cell growth or viability, MTT; 48 h): 0.019 µM
Cc1cc(C)c(N[C](NCc2ccc(N[C](Nc3c(C(C)C)cccc3C(C)C)=[Pd-]([Cl])([Cl])[C]#[N+]c3c(C(C)C)cccc3C(C)C)cc2)=[Au][Cl])c(C)c1  IC50 (cell growth or viability): 17 µM
CCN(CC)c1ccc2c(c1)[O][Pd]([CH2]C#N)[N](Cc1ccccc1)c1ncccc1N=C2  IC50 (cell growth or viability, MTT; 48 h): 34.4 µM
C=CC(=C)CC[C@]1(C)[C@H](C)C[C@H](O)[C@@]23C(=C[C@H](OC(=O)C(C)C)C[C@@H]12)[C@@H](OC(C)=O)O[C@H]3OC(C)=O  IC50 (cell growth or viability, SRB): 0.48 µM
CC(C)c1cccc(C(C)C)c1[N+]#[C][Pd-]([Cl])([Cl])=[C](Nc1ccc(CN[C](NC(C)(C)C)=[Au][Cl])cc1)Nc1c(C(C)C)cccc1C(C)C  IC50 (cell growth or viability): > 100 µM
C=CCc1ccc(OC(C)=O)c(OC)c1  IC50 (MTT; 24 h): > 50 µM
CN[C@@H](C)C(=O)N[C@H]1CN(C(=O)Cc2ccccc2)CC[C@H]2CC[C@@H](C(=O)NC(c3ccccc3)c3ccccc3)N2C1=O  IC50 (cell growth or viability; 96 h): 0.052 µM
